Assay results collected from several papers.
Compare with care: the assays were run in different laboratories. Several values in a cell are separate wells, animals, samples, runs or records. ± gives the spread as reported.
rep main protease: Replicase polyprotein 1ab, main protease (rep, Severe acute respiratory syndrome coronavirus 2, UniProt P0DTD1)
Spike glycoprotein: Spike glycoprotein (Severe acute respiratory syndrome coronavirus 2, UniProt P0DTC2)
uncharacterized protein: uncharacterized protein (Anopheles coluzzii, UniProt A0A6E8VQK1)
gag-pol reverse transcriptase: Gag-Pol polyprotein, reverse transcriptase (gag-pol, Human immunodeficiency virus type 1 group M subtype B, UniProt P04585)

Structure (SMILES)	tested on	assay	test system	conditions	scale	quantity	value
CC1=NN(c2ccccc2)C(=O)C1	rep main protease	reporter gene (mKate2), inhibitor	–	20 µM	–	inhibition	-0.204%
C[C@@H]1O[C@@H](O[C@@H]2[C@@H](O)[C@H](OCCc3ccc(O)c(O)c3)O[C@H](CO)[C@H]2OC(=O)/C=C/c2ccc(O)c(O)c2)[C@H](O)[C@H](O)[C@H]1O	Spike glycoprotein	binding, biolayer interferometry	–	–	–	Kd	13.9 µM
Nc1ncnc2c([C@@H]3N[C@H](CO)[C@@H](O)[C@H]3O)c[nH]c12	Western equine encephalitis virus	viral replication, inhibitor	Vero 76	9.5 µM	–	inhibition	3.6%
CCN(CC)c1nc(C)cc(OP(=S)(OC)OC)n1	uncharacterized protein	enzyme activity, inhibitor	Sf9 cell homogenate	0.2294 µM, 0.1667 h, added: α-naphthyl acetate substrate	relative to: no inhibitor	remaining activity	109%
CCOC(=O)[C@H](Cc1ccccc1)NC(=O)c1cc(Cl)c(OCCN2CCN(C)CC2)c(Cl)c1O.Cl.Cl	rep main protease	viral replication, Gluc reporter	SARS-CoV-2	20 µM	–	inhibition	-1.09%
O=C(CCn1cc[nH]c(=O)c1=O)N[C@@H]1CCCC12CN(C(=O)c1cccc3c1C(=O)NC3)C2	rep main protease	enzyme activity, inhibitor	–	5 µM, run 1	–	inhibition	12.8%
COc1ccc(C[C@@H]2c3cc(Oc4cc(C[C@@H]5c6cc(O)c(OC)cc6CCN5C)ccc4O)c(OC)cc3CCN2C)cc1	Spike glycoprotein	binding	–	–	–	Kd	271 µM
Cc1cncc(C(=O)NC[C@H]2c3ccccc3CCN2C(=O)c2cccn3nnnc23)c1	rep main protease	enzyme activity, inhibitor	–	5 µM, mean of runs	–	inhibition	28.4%
CC(C)C[C@H](NC(=O)[C@H](CC(=O)O)NC(=O)CNC(=O)[C@H](CCCNC(=N)N)NC(=O)[C@H](CC(C)C)NC(=O)[C@H](CC(N)=O)NC(=O)[C@@H]1CCCN1C(=O)[C@@H](NC(=O)[C@H](C)NC(=O)[C@H](CC(N)=O)NC(=O)CCOCCOCCOCCOCCOCCOCCOCCOCCOCCOCCOCCOCCOCCOCCOCCOCCOCCOCCOCCOCCOCCOCCOCCOCCOCCOCCOCCOCCNC(=O)CCOCCOCCOCCOCCOCCOCCOCCOCCOCCOCCOCCOCCOCCOCCOCCOCCOCCOCCOCCOCCOCCOCCOCCOCCOCCOCCOCCOCCNC(=O)c1ccc(F)cc1)C(C)C)C(=O)N[C@@H](CCC(N)=O)C(=O)N[C@H](C(=O)N[C@@H](CC(C)C)C(=O)N[C@@H](C)C(=O)N[C@@H](CCC(N)=O)C(=O)N[C@@H](CCCCN)C(=O)N[C@H](C(=O)N[C@@H](C)C(=O)N[C@@H](CCCNC(=N)N)C(=O)N[C@H](C(N)=O)[C@@H](C)O)C(C)C)C(C)C [fluorine-18 labelled]	–	–	male athymic nude mice, DX3puroβ6 xenograft, αvβ6-positive DX3puroβ6 tumour	intravenous, 1 h	–	tissue uptake	0.52 ± 0.09 %ID/g
CC[C@H](C)[C@H](NC(=O)[C@H](CC(C)C)NC(=O)[C@H](Cc1c[nH]c2ccccc12)NC(=O)[C@H](CCC(N)=O)NC(=O)[C@@H](NC(=O)[C@H](Cc1ccccc1)NC(=O)[C@H](C)NC(=O)[C@H](CCCCNC(=O)COCCOCCNC(=O)COCCOCCNC(=O)CC[C@H](NC(=O)CCCCCCCCCCCCCCCCCCC(=O)O)C(=O)O)NC(=O)[C@H](CCC(N)=O)NC(=O)[C@H](C)NC(=O)[C@@H](NC(=O)[C@H](CCCCN)NC(=O)[C@H](CC(=O)O)NC(=O)[C@H](CC(C)C)NC(=O)C(C)(C)NC(=O)[C@@H](NC(=O)[C@H](CO)NC(=O)[C@H](Cc1ccc(O)cc1)NC(=O)[C@H](CC(=O)O)NC(=O)[C@H](CO)NC(=O)[C@@H](NC(=O)[C@H](Cc1ccccc1)NC(=O)[C@@H](NC(=O)CNC(=O)[C@H](CCC(=O)O)NC(=O)C(C)(C)NC(=O)[C@@H](N)Cc1ccc(O)cc1)[C@@H](C)O)[C@@H](C)O)[C@@H](C)CC)[C@@H](C)CC)C(C)C)C(=O)N[C@@H](C)C(=O)NCC(=O)NCC(=O)N1CCC[C@H]1C(=O)N[C@@H](CO)C(=O)N[C@@H](CO)C(=O)NCC(=O)N[C@@H](C)C(=O)N1CCC[C@H]1C(=O)N1CCC[C@H]1C(=O)N1CCC[C@H]1C(=O)N[C@@H](CO)C(N)=O	–	refers to: anti-drug antibodies	healthy human subjects	1.5 mg multiple ascending, post-baseline	–	subjects with treatment-emergent ADA	0%
CC(=O)O[C@@H]1[C@H](N)[C@@H](OP(=O)(O)O)[C@@]2(C(=O)O)CS[C@@](O)(C(N)=O)[C@@H]1O2	DNA-directed RNA polymerase subunit beta' / DNA-directed RNA polymerase subunit beta (rpoC/rpoB, Escherichia coli, UniProt P0A8T7+P0A8V2, H936A)	binding to elongation complex, 6-MI fluorescence titration	β′H936A RNAP	riboside RNA 3′-end adenine	–	Kd	0.94 ± 0.15 µM
O=C(NCC[C@H]1CCCN(C(=O)c2ccc(-c3cnc[nH]3)cc2)C1)c1ccc2n[nH]c(=O)n2c1	rep main protease	enzyme activity, inhibitor	–	5 µM, mean of runs	–	inhibition	10.5%
CC1=C(C(=O)OC2CCCCC2)C(c2ccc([N+](=O)[O-])cc2)C2=C(CC(C)(C)CC2=O)N1 (centres unmarked)	rep main protease	viral replication, Gluc reporter	SARS-CoV-2	20 µM	–	inhibition	-5.37%
CCOC(=O)CC(SP(=S)(OC)OC)C(=O)OCC (centres unmarked)	uncharacterized protein	enzyme activity, inhibitor	Sf9 cell homogenate	0.04545 µM, 0.1667 h, added: α-naphthyl acetate substrate	relative to: no inhibitor	remaining activity	105%
Nc1ccn([C@H]2C[C@H](O)[C@@H](COP(=O)(O)OP(=O)(O)OP(=O)(O)O)O2)c(=O)n1	gag-pol reverse transcriptase	nucleotide misinsertion, steady-state kinetics	–	wild-type RT, added: opposite template T	–	kcat	0.055 ± 0.00817 s⁻¹
CC(=O)N[C@@H](CC(C)C)C(=O)N[C@@H](CC(C)C)C(=O)N[C@H](C=O)CCCN=C(N)N.CC(=O)N[C@@H](CC(C)C)C(=O)N[C@@H](CC(C)C)C(=O)N[C@H](C=O)CCCN=C(N)N.O=S(=O)(O)O	rep main protease	reporter gene (Gaussia luciferase), inhibitor	–	20 µM	–	inhibition	4.56%

Structure (SMILES)	tested on	assay	test system	conditions	scale	quantity	value
Cc1cn([C@H]2C[C@H](O)[C@@H](COP(=O)(O)OP(=O)(O)OP(=O)(O)O)O2)c(=O)[nH]c1=O	gag-pol reverse transcriptase	nucleotide misinsertion, steady-state kinetics	–	wild-type RT, added: opposite template T	–	kcat	0.0265 ± 0.00583 s⁻¹
Nc1ccc2cc3ccc(N)cc3nc2c1	rep main protease	reporter gene (Gaussia luciferase), inhibitor	HEK293T	20 µM	–	inhibition	-5.7%
Cn1cnc(Cn2c(=O)[nH]/c(=N\c3cc4cn(C)nc4cc3Cl)n(Cc3cc(F)c(F)cc3F)c2=O)n1	–	–	human, severe renal impairment	oral, 375 mg, treatment-related decreased GFR, Moderate severity	–	patients with adverse event	0%
Nc1nc2c(ncn2[C@H]2C[C@H](O)[C@@H](COP(=O)(O)OP(=O)(O)OP(=O)(O)O)O2)c(=O)[nH]1	gag-pol reverse transcriptase	substrate	–	misinsertion opposite template T	–	Km	12.7 ± 7.8 µM
O=C(NC[C@H](NC(=O)c1cnoc1-c1ccccc1)c1ccc2ccccc2c1)c1cn[nH]n1	rep main protease	enzyme activity, inhibitor	–	5 µM, mean of runs	–	inhibition	10.5%
Cc1cn([C@H]2C=C[C@@H](COP(=O)(O)OP(=O)(O)OP(=O)(O)O)O2)c(=O)[nH]c1=O	Gag-Pol polyprotein, reverse transcriptase (gag-pol, Human immunodeficiency virus type 1 group M subtype B, UniProt P04585, K652A)	reverse transcriptase activity, inhibitor	HIV-1	–	relative to: K65A mutant over wild type	fold resistance	3 fold
O=C(NC[C@H]1Cc2ccccc2CN1C(=O)c1n[nH]c(=O)[nH]c1=O)c1cccc2ccncc12	rep main protease	enzyme activity, inhibitor	–	5 µM, run 2	–	inhibition	9.3%
C=C(C)C1(O)OC(=O)C=C1OC (centres unmarked)	rep main protease	reporter gene (mKate2), inhibitor	HEK293T	20 µM	–	inhibition	-0.522%
Cc1cc(C(=O)N2CCC3(CC2)CN(C(=O)C[C@@H]2CC[C@H](O)C2)Cc2ccccc2O3)n[nH]1	rep main protease	enzyme activity, inhibitor	–	5 µM, mean of runs	–	inhibition	11.2%
COc1ccc2nc([S@@+]([O-])Cc3ncc(C)c(OC)c3C)[nH]c2c1	rep main protease	reporter gene (mKate2), inhibitor	–	20 µM	–	inhibition	0.448%
CCc1c(C(=O)C(N)=O)c2c(OCC(=O)O)cccc2n1Cc1ccccc1	Daboia russelii venom phospholipase A2	enzyme activity, inhibitor	MH population	0.1 µM, added: NOB substrate	relative to: venom alone	remaining activity	92% and 93.5%
Nc1ncnc2c1ncn2[C@H]1C[C@H](O)[C@@H](COP(=O)(O)OP(=O)(O)OP(=O)(O)O)O1	Gag-Pol polyprotein, reverse transcriptase (gag-pol, Human immunodeficiency virus type 1 group M subtype B, UniProt P04585, K653T)	substrate	–	K66T mutant, added: G:A mismatched primer template	–	Km	415 ± 263 µM
Cc1ccc(C(=O)N2CC3(CCC3)C[C@H]2CNC(=O)c2cncc3[nH]cnc23)cc1O	rep main protease	enzyme activity, inhibitor	–	5 µM, mean of runs	–	inhibition	16.6%
CC(C)[C@H](O)C(=O)N[C@@H](C)C(=O)N[C@@H]1C(=O)N(C)c2ccccc2-c2ccccc21	rep main protease	viral replication, Gluc reporter	SARS-CoV-2	20 µM	–	inhibition	0.713%
CSCC[C@H](NC(=O)[C@H](CCCNC(=N)N)NC(=O)[C@H](Cc1ccccc1)NC(=O)[C@H](CS)NC(=O)[C@H](C)NC(=O)[C@@H](NC(=O)[C@@H](NC(=O)[C@H](C)NC(=O)[C@H](CCCNC(=N)N)NC(=O)[C@H](CCCNC(=N)N)NC(=O)[C@H](CCCNC(=N)N)NC(=O)[C@H](CCC(N)=O)NC(=O)[C@H](CCCCN)NC(=O)[C@H](CO)NC(=O)[C@H](CC(C)C)NC(=O)[C@H](CC(C)C)NC(=O)[C@H](CCCCN)NC(=O)[C@H](Cc1c[nH]cn1)NC(=O)[C@H](Cc1c[nH]c2ccccc12)NC(=O)[C@@H](NC(=O)[C@H](C)NC(=O)[C@H](CCCCN)NC(=O)[C@H](CCCCN)NC(=O)[C@H](CO)NC(=O)[C@H](CCCCN)NC(C)=O)C(C)C)C(C)C)C(C)C)C(=O)N[C@H](C(=O)N1CCC[C@H]1C(=O)N[C@@H](CC(C)C)C(=O)N[C@@H](Cc1ccc(O)cc1)C(=O)N[C@@H](CC(N)=O)C(N)=O)[C@@H](C)O	calmodulin 1-148 sites I and II	calcium binding, Phe fluorescence titration	–	12 µM, pH 7.4, 22 °C, added: 6 µM calmodulin	–	apparent ΔG1	-8.4 ± 0.03 kcal/mol
Nc1ccc(C(=O)N2CC3(CCC3)C[C@H]2CNC(=O)c2cncc3ccccc23)cc1O	rep main protease	enzyme activity, inhibitor	–	5 µM, run 2	–	inhibition	26.6%

Excerpt of the above:
Structure (SMILES)	tested on	assay	test system	conditions	scale	quantity	value
Cc1cn([C@H]2C=C[C@@H](COP(=O)(O)OP(=O)(O)OP(=O)(O)O)O2)c(=O)[nH]c1=O	Gag-Pol polyprotein, reverse transcriptase (gag-pol, Human immunodeficiency virus type 1 group M subtype B, UniProt P04585, K652A)	reverse transcriptase activity, inhibitor	HIV-1	–	relative to: K65A mutant over wild type	fold resistance	3 fold
O=C(NC[C@H]1Cc2ccccc2CN1C(=O)c1n[nH]c(=O)[nH]c1=O)c1cccc2ccncc12	rep main protease	enzyme activity, inhibitor	–	5 µM, run 2	–	inhibition	9.3%
C=C(C)C1(O)OC(=O)C=C1OC (centres unmarked)	rep main protease	reporter gene (mKate2), inhibitor	HEK293T	20 µM	–	inhibition	-0.522%
Cc1cc(C(=O)N2CCC3(CC2)CN(C(=O)C[C@@H]2CC[C@H](O)C2)Cc2ccccc2O3)n[nH]1	rep main protease	enzyme activity, inhibitor	–	5 µM, mean of runs	–	inhibition	11.2%
COc1ccc2nc([S@@+]([O-])Cc3ncc(C)c(OC)c3C)[nH]c2c1	rep main protease	reporter gene (mKate2), inhibitor	–	20 µM	–	inhibition	0.448%
